{"data": "Experimental data from different studies", "note": "Numbers after ± are the reported error."}
{"Compound": "C=CC(=O)N1CCCC(n2c(=O)c3ncccc3n(Cc3ccc(Oc4ccccc4)cc3)c2=O)C1 (stereo not shown)", "cell line": "Rec1 and HCT-116", "setting": "0.2 µM", "measurement": "cellular uptake time", "result": "< 5 min"}
{"Compound": "Cc1ccc(S(=O)(=O)Nn2c3c(cc(-c4nc5ccccc5s4)c2=O)CCCC3)cc1", "cell line": "BGM", "test": "trypan blue", "setting": "72 h", "measurement": "maximum non-toxic concentration", "result": "130 µg/mL"}
{"Compound": "C[C@H](NC(=O)[C@H](CCCNC(=N)N)N(C)C(=O)[C@@H]1CCCN1C(=O)[C@H](CCCNC(=N)N)NC(=O)CNC(=O)c1ccc2c(c1)C1(OC2=O)c2ccc(O)cc2Oc2cc(O)ccc21)C(=O)N[C@@H](Cc1ccccc1)C(=O)N[C@H](C(=O)N[C@@H](Cc1ccccc1)C(=O)N(C)[C@@H](C)C(N)=O)[C@@H](C)O", "cell line": "LNCaP", "test": "single-cell CE-LIF", "setting": "5 min, microinjection", "how to read": "relative to: all species", "measurement": "intact parent peptide", "result": "15 ± 5%"}
{"Compound": "COc1ccc([C@@H]2CC(=O)c3c(O)cc(O[C@@H]4O[C@H](CO[C@@H]5O[C@@H](C)[C@H](O)[C@@H](O)[C@H]5O)[C@@H](O)[C@H](O)[C@H]4O)cc3O2)cc1O", "cell line": "MRC5", "test": "cell growth or viability, MTS", "setting": "100 µg/mL, 48 h", "measurement": "viability", "result": "62.2%"}
{"Compound": "Cc1ccc(S(=O)(=O)Nn2c3c(cc(-c4nc5ccccc5s4)c2=O)CCCCCC3)cc1", "cell line": "BGM", "test": "trypan blue", "setting": "72 h", "measurement": "maximum non-toxic concentration", "result": "120 µg/mL"}
{"Compound": "Nc1c(C(=O)c2ccc(Br)cc2)sc(S)c1-c1nc2ccccc2s1", "cell line": "BGM", "test": "cytotoxicity", "setting": "72 h", "measurement": "maximum non-toxic concentration", "result": "100 µg/mL"}
{"Compound": "COc1cc(/C=C/C(=O)c2ccc3ccccc3c2)ccc1OCc1ccccc1", "cell line": "HEK293 empty vector pcDNA3.1", "test": "cell growth, MTT", "setting": "72 h, 10% FBS", "measurement": "GI50", "result": "> 100 µM"}
{"Compound": "CC(C)[C@H]1c2ccc(F)cc2CC[C@@]1(CCN(C)CCCc1nc2ccccc2[nH]1)OC(=O)C1CC1", "cell line": "IMR-90", "test": "cell growth or viability, resazurin", "setting": "7 h", "measurement": "IC50", "result": "13 µM"}
{"Compound": "Cc1[nH][n+]([Pd-2]([Cl])([Cl])[n+]2[nH]c(C)c(CSCc3ccccc3)c2C)c(C)c1CSCc1ccccc1", "cell line": "Jurkat", "test": "cytotoxicity, 7-AAD flow cytometry", "setting": "24 h", "measurement": "IC50", "result": "0.42 ± 0.03 µM"}
{"Compound": "COC(=O)CC[C@@H](NC(=O)[C@@H](Cc1ccc(OP(=O)(O)O)cc1)NC(=O)[C@@H](Cc1ccccc1)NC(=O)[C@@H](Cc1ccccc1)NC(=O)Cc1ccc2ccccc2c1)C(=O)OC", "cell line": "HS5", "setting": "200 µM, 24 h", "measurement": "remaining compound", "result": "62.2%"}
{"Compound": "CC(=O)OC[C@H]1O[C@@H](Sc2sc(C(=O)c3ccc(Cl)cc3)c(N)c2-c2nc3ccccc3s2)[C@H](OC(C)=O)[C@@H](OC(C)=O)[C@@H]1OC(C)=O", "cell line": "BGM", "test": "cytotoxicity", "setting": "72 h", "measurement": "maximum non-toxic concentration", "result": "80 µg/mL"}
{"Compound": "Cc1[nH][n+]([Pd-2]([Cl])([Cl])[n+]2[nH]c(C)c(CSC3CCCCC3)c2C)c(C)c1CSC1CCCCC1", "cell line": "Jurkat", "test": "cytotoxicity, 7-AAD flow cytometry", "setting": "24 h", "measurement": "IC50", "result": "0.11 ± 0.01 µM"}
{"Compound": "CCOC(=O)c1cc(-c2nc3ccccc3s2)c(=O)n(NS(=O)(=O)c2ccccc2)c1N", "cell line": "FRhK-4", "test": "trypan blue", "setting": "72 h", "measurement": "maximum non-toxic concentration", "result": "110 µg/mL"}
{"Compound": "O=C(CC12CC3CC(CC(C3)C1)C2)NC12CCC(C(=O)NC3CCN(S(=O)(=O)c4cc(C(=O)Nc5cc(F)c(F)c(F)c5)ccc4F)CC3)(CC1)CC2", "cell line": "HepAD38", "test": "cytopathic effect", "system": "human hepatoma cells", "measurement": "maximum non-toxic concentration", "result": "30 µmol/L"}
{"Compound": "O=c1[nH]c2ccccc2nc1/C=C/c1ccc2ccccc2n1", "cell line": "HL7702", "test": "cell viability, MTT", "setting": "72 h", "measurement": "IC50", "result": "> 100 µM"}
{"Compound": "CC(=O)O[C@@H]1[C@@H](OC(C)=O)[C@H](Sc2sc(C(=O)c3ccc(C)cc3)c(N)c2-c2nc3ccccc3s2)OC[C@H]1OC(C)=O", "cell line": "BGM", "test": "cytotoxicity", "setting": "72 h", "measurement": "maximum non-toxic concentration", "result": "80 µg/mL"}
{"Compound": "COc1ccc2c(c1CC=C(C)C)O[C@H]1c3cc4c(cc3OC[C@@]21O)OC(C)(C)C=C4", "cell line": "3T3-L1", "test": "MTT", "setting": "concentration not given", "measurement": "viability", "result": "56.5 ± 1.3%"}
{"Compound": "O=C(Nc1cc(F)c(F)c(F)c1)c1ccc(F)c(S(=O)(=O)N2CCC(NC(=O)c3ccc(N4CCN(C(=O)CC56CC7CC(CC(C7)C5)C6)CC4)cc3)CC2)c1", "cell line": "HepAD38", "test": "cytopathic effect", "system": "human hepatoma cells", "measurement": "maximum non-toxic concentration", "result": "30 µmol/L"}
{"Compound": "COc1cc(/C=C/C(=O)c2ccc3c(c2)OCO3)cc(OC)c1OC", "cell line": "HEK293 empty vector pcDNA3.1", "test": "cell growth, MTT", "setting": "72 h, 10% FBS", "measurement": "GI50", "result": "4.4 µM"}
{"Compound": "O=C(Nc1cc(F)c(F)c(F)c1)c1ccc(F)c(S(=O)(=O)N2CCC(NC(=O)c3ccc(C4CCN(C(=O)CC56CC7CC(CC(C7)C5)C6)CC4)cc3)CC2)c1", "cell line": "HepAD38", "test": "cytopathic effect", "system": "human hepatoma cells", "measurement": "maximum non-toxic concentration", "result": "30 µmol/L"}
{"Compound": "CC(=O)N[C@H](C(=O)N[C@H](C(=O)N[C@@H](CCCNC(=N)N)C(=O)N1Cc2ccccc2C[C@H]1C(=O)N[C@@H](Cc1ccccc1)C(N)=O)C1CCCCC1)C(C)C", "cell line": "human PBMC", "test": "Bio-Plex multiplex, measured: IL-4", "setting": "500 µg/mL, 24 h", "measurement": "cytokine level", "result": "1.4 ± 0.2 pg/mL"}
{"Compound": "COc1cc(OC)c(OC)cc1/C=C/C(=O)c1ccc2ccccc2c1", "cell line": "HEK293 empty vector pcDNA3.1", "test": "cell growth, MTT", "setting": "72 h, 10% FBS", "measurement": "GI50", "result": "34.9 µM"}
{"Compound": "O=c1c(-c2nc3ccccc3s2)cc2c(n1NS(=O)(=O)c1ccc(Cl)cc1)CCCCCC2", "cell line": "BGM", "test": "trypan blue", "setting": "72 h", "measurement": "maximum non-toxic concentration", "result": "120 µg/mL"}
{"Compound": "CC(=O)O[C@H]1CC[C@]2(C)[C@H]3CC=C4[C@@H]5CC(C)(C)CC[C@]5(CO)CC[C@@]4(C)[C@]3(C)CC[C@H]2C1(C)C", "cell line": "HEK293-A", "test": "cell growth or viability, SRB", "measurement": "IC50", "result": "97.2 µM"}
{"Compound": "COC(=O)c1ccccc1-c1c2ccc(=O)cc-2oc2c1ccc1cccc(OC)c12", "cell line": "CAPAN-1", "test": "cell growth or viability, resazurin", "setting": "24 h", "measurement": "IC50", "result": "30.1 µM"}
{"Compound": "CC(=O)O[C@@H]1[C@@H](OC(C)=O)[C@H](Sc2sc(C(=O)c3ccc(Br)cc3)c(N)c2-c2nc3ccccc3s2)OC[C@@H]1OC(C)=O", "cell line": "FRhK-4", "setting": "72 h", "measurement": "non-toxic concentration", "result": "90 µg/mL"}
{"Compound": "CC(=O)[C@@]12C[C@@H](CC=C(C)C)[C@](C)(CCC=C(C)C)C(C(=O)c3ccccc3)=C1O[C@]1(C)CCCC(C)(C)[C@H]1C2 (relative stereo)", "cell line": "3T3-L1", "test": "MTT", "setting": "concentration not given, 72 h, added: insulin 30 nM", "measurement": "viability", "result": "97%"}
{"Compound": "CC(=O)OC[C@H]1O[C@@H](Sc2sc(C(=O)c3ccc(C)cc3)c(N)c2-c2nc3ccccc3s2)[C@H](OC(C)=O)[C@@H](OC(C)=O)[C@H]1OC(C)=O", "cell line": "BGM", "test": "cytotoxicity", "setting": "72 h", "measurement": "maximum non-toxic concentration", "result": "100 µg/mL"}
{"Compound": "COc1ccc2c(oc3c4ccc(O)cc4oc(=O)c23)c1CC=C(C)C", "cell line": "3T3-L1", "test": "MTT", "setting": "concentration not given", "measurement": "viability", "result": "34.2 ± 0.9%"}
{"Compound": "C=C(C)[C@@H]1CC[C@]2(C(=O)n3ccnc3)CC[C@]3(C)[C@H](CC[C@@H]4[C@@]5(C)CCCNC(C)(C)[C@@H]5CC[C@]43C)[C@@H]12", "cell line": "primary HFF", "test": "cell viability, CellTiter-Glo", "setting": "HCMV AD169 assay setting", "measurement": "CC50", "result": "1.18 µM"}
{"Compound": "CC(=O)OC[C@H]1O[C@@H](Sc2sc(C(=O)c3ccc(Br)cc3)c(N)c2-c2nc3ccccc3s2)[C@H](OC(C)=O)[C@@H](OC(C)=O)[C@@H]1OC(C)=O", "cell line": "FRhK-4", "setting": "72 h", "measurement": "non-toxic concentration", "result": "100 µg/mL"}
{"Compound": "CC(=O)[O-].Nc1ccc(C([O-])=NN=Cc2ccc(OCC(=O)Nc3ccc(Cl)cc3)cc2)cc1.[Cu+2]", "cell line": "WISH", "test": "cytotoxicity, MTT", "setting": "24 h", "measurement": "IC50", "result": "43.3 ± 3.8 µM"}
{"Compound": "C=C(CO)[C@@H]1CC[C@]2(C)CC[C@]3(C)[C@H](CC[C@@H]4[C@@]5(C)CCC(=O)C(C)(C)C5CC[C@]43C)C12 (stereo partly shown)", "cell line": "HEK293-A", "test": "cell growth or viability, SRB", "measurement": "IC50", "result": "12.5 µM"}
{"Compound": "CCCCCCCCCCCC(=O)NCCC(=O)N[C@H](CCCNC(=N)N)C(=O)N[C@H](CCCNC(=N)N)C(=O)N[C@H](CCCNC(=N)N)C(=O)N[C@H](CCCNC(=N)N)C(=O)N[C@H](CCCNC(=N)N)C(=O)N[C@H](CCCNC(=N)N)C(=O)N[C@H](CCCNC(=N)N)C(=O)N[C@H](CCCNC(=N)N)C(=O)N[C@H](CCCNC(=N)N)C(=O)N[C@@H](CCCCNC(=S)Nc1ccc2c(c1)C(=O)OC21c2ccc(O)cc2Oc2cc(O)ccc21)C(N)=O", "cell line": "Jurkat", "test": "flow cytometry", "setting": "10 µM, 6 h, loaded 10 min at 37 °C, then washed", "how to read": "relative to: 0 h, higher = more retained", "measurement": "retained fluorescence", "result": "~50%"}
{"Compound": "CC(C)=CCc1cc([C@@H]2CC(=O)c3ccc(O)c(CC=C(C)C)c3O2)c(O)c(CC=C(C)C)c1O", "cell line": "3T3-L1", "test": "MTT", "setting": "concentration not given", "measurement": "viability", "result": "26.9 ± 0.9%"}
{"Compound": "C[C@H]1[C@H](C)CC[C@]2(CO)CC[C@]3(C)C(=CC[C@@H]4[C@@]5(C)CCCNC(C)(C)[C@@H]5CC[C@]43C)[C@H]12", "cell line": "primary HFF", "test": "cell viability, CellTiter-Glo", "setting": "HCMV AD169 assay setting", "measurement": "CC50", "result": "14.8 µM"}
{"Compound": "NC(COc1ccccc1C(F)(F)F)c1ccccc1 (stereo not shown)", "cell line": "normal iPSC cardiomyocytes", "test": "kinetic imaging cytometry", "setting": "5 min, pH 7.4", "measurement": "beating cessation concentration", "result": "66 µM"}
{"note": "Repeated from above:"}
{"Compound": "COc1cc(/C=C/C(=O)c2ccc3c(c2)OCO3)cc(OC)c1OC", "cell line": "HEK293 empty vector pcDNA3.1", "test": "cell growth, MTT", "setting": "72 h, 10% FBS", "measurement": "GI50", "result": "4.4 µM"}
{"Compound": "O=C(Nc1cc(F)c(F)c(F)c1)c1ccc(F)c(S(=O)(=O)N2CCC(NC(=O)c3ccc(C4CCN(C(=O)CC56CC7CC(CC(C7)C5)C6)CC4)cc3)CC2)c1", "cell line": "HepAD38", "test": "cytopathic effect", "system": "human hepatoma cells", "measurement": "maximum non-toxic concentration", "result": "30 µmol/L"}
{"Compound": "CC(=O)N[C@H](C(=O)N[C@H](C(=O)N[C@@H](CCCNC(=N)N)C(=O)N1Cc2ccccc2C[C@H]1C(=O)N[C@@H](Cc1ccccc1)C(N)=O)C1CCCCC1)C(C)C", "cell line": "human PBMC", "test": "Bio-Plex multiplex, measured: IL-4", "setting": "500 µg/mL, 24 h", "measurement": "cytokine level", "result": "1.4 ± 0.2 pg/mL"}
{"Compound": "COc1cc(OC)c(OC)cc1/C=C/C(=O)c1ccc2ccccc2c1", "cell line": "HEK293 empty vector pcDNA3.1", "test": "cell growth, MTT", "setting": "72 h, 10% FBS", "measurement": "GI50", "result": "34.9 µM"}
